Measurements of several laboratories.
Numbered parts are unrelated; each lists some results of a single study. “And” joins repeats or separate records; there may be more than shown. Positions count from the first letter of the parent shown.

Sample 1
Target: ABI1, truncated, D143A, DHFR fusion (Arabidopsis thaliana)
Method: DHFR PCA, deep sequencing
Matrix: yeast
Setting: methotrexate growth selection, single substitutions
Together with: (+)-ABA 200 µM
Baseline: wild-type fitted maximum
Reading: higher = stronger binding
Parent: PYL1, truncated, DHFR fusion (Arabidopsis thaliana); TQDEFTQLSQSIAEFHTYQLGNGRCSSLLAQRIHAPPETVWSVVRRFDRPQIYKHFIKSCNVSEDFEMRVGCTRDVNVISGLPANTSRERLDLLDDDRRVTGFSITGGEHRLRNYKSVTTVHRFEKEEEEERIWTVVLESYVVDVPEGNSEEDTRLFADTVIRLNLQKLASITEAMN; partner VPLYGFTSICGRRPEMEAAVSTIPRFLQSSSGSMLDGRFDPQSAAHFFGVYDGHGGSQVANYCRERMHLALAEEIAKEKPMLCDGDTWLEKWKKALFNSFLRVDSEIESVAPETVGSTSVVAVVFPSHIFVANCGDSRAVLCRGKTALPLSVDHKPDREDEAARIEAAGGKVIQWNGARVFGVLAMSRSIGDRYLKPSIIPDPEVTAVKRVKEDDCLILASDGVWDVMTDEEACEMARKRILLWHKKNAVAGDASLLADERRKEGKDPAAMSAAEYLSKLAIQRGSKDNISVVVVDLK
`S11F`: “relative binding score” 92.3%.
Under “relative binding score”, `R69N` is recorded as 98.5%.
For `Q31Y`, “relative binding score” read 71.4%.
`K58D`: “relative binding score” 89.4%.

Sample 2
Target: RNA binding protein fox-1 homolog 2, RRM domain, GST-SBP tag (RBFOX2, Homo sapiens, UniProt O43251-10, residues 100-194)
Method: RNA Bind-n-Seq
Molecule type: RNA
Matrix: in vitro
Concentration: 365 nM
Setting: natural RNA segment, single round, ends assumed
Baseline: no-protein control
Reading: higher = stronger binding
Shared flanks, not repeated: GGGAGUUCUACAGUCCGACGAUC … UGGAAUUCUCGGGUGCCAA
`AAAAGAUUUUAUGUAAGAAAUGUGCUUACACUUUGUAUUUUAUUUUUAGCAGCAGCUAAAAGGCCUGUAGUUUUACUCUCUCUCUCCUCUCUCUCUCUCUCUCUCUCUCU`: “RBNS enrichment (R)” 2.56.
Under “RBNS enrichment (R)”, `CACCACAGGCUCCCCUGGGAGGACGAGGGAAACGCUGAUGAGACGCUGGGCAUCUCUCCUCUGUGGCUCUAGGACAUCUGUCCAGGAGGCUGGGCGGAGGUGGGCAGGAU` is recorded as 0.48.
Under “RBNS enrichment (R)”, `AAAAGCCUAGACAAACAUUUUGUCAGAACCUUGCGAAAUGCCAAGGUAUUACCAGUAAAUUGGUUGUAUAUACAAUAAAAUUGCACCCUUUUUUUAAACAAAACAAACUA` is recorded as 0.741.
`CUGGCCACAGUGAGGCAUGUAUCUGUAGUUCCUUGCUGAAUAACAAGAAGAUAUAUGUUUGUAUAUCUACAUGGCAUCCUGCACCUCAGAGCUAAGACAGGUUGCACGUC`: “RBNS enrichment (R)” 3.36.
`UUUGCUUAGGGUAUAUUUUUUCAGUGUCUGAAAGUCAAAGGUAUUCCUGUCACAACUGUAAACAAACUUAUCCUAAAUGUGUUAAAACAUAUUCUUGGGUACUCUAUUUA`: “RBNS enrichment (R)” 0.428.

Sample 3
Target: Histone acetyltransferase KAT6A, winged helix 1, GST fusion (KAT6A, Homo sapiens, UniProt Q92794, residues 1-85)
Method: protein binding microarray
Molecule type: double-stranded DNA, one strand shown
Matrix: in vitro
Concentration: not given
Setting: 8-mer, flanks averaged, mean of 2 arrays, mostly near background
Baseline: not given
Reading: higher = stronger binding
Target sequence (chain): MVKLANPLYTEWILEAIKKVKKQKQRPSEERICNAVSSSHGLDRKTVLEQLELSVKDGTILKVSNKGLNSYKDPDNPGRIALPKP
With `CACATGGC` the E-score was 0.0969.
For `GTATCGCA`, the E-score was 0.0713.
`CAGAAGCA` has an E-score of -0.0996.
With `ACGCCGGA` the E-score was 0.204.
`GCTTGCCC` has an E-score of -0.037.
The E-score of `GCAATACC` is reported as 0.175.

Single results of other studies
For `PhoQ, residues 284 288 289 292 302 303 ASVMEA`, the fold induction was 24.8 and 16.2 (PhoP, residues 12 14 15 18 19 LWHCS (Escherichia coli, UniProt P23836); Sort-seq, item: YFP reporter; E. coli; PhoQ-PhoP variant library, together with: 10 µM Mg2+; baseline: high Mg2+ state, higher = stronger signaling).
